# Experimental data gathered from unrelated publications.
# Each line is one published result; not all experiments were run side by side. ± gives the spread as reported.
# Target: Indoleamine 2,3-dioxygenase 1 (IDO1, Homo sapiens, UniProt P14902)
# Sequence of UniProt P14902 (whole entry, looked up): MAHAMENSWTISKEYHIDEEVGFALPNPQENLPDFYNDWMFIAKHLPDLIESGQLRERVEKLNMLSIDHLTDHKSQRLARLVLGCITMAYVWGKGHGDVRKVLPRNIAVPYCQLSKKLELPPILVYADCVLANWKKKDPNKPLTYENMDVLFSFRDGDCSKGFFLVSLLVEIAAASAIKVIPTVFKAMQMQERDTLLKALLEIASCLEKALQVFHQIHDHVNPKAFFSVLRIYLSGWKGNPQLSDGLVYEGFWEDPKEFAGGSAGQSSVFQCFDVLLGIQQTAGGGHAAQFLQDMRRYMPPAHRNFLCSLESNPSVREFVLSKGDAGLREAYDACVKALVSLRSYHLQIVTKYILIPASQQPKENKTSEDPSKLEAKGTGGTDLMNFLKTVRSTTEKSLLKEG
SMILES,assay,system,setting,IC50
COC1=Cc2c(cc(O)c3cc(C)c(OC)cc23)C(C)(C)C1=O,kynurenine production,HEK293 expressing human IDO1,12 h,18.4 µM
C[C@@H]1O[C@@H](OCc2cc(O)c3c(c2)[C@H]([C@@H]2OC[C@@H](O)[C@H](O)[C@H]2O)c2cccc(O)c2C3=O)[C@H](O)[C@H](O)[C@H]1O,"kynurenine formation, inhibitor",,,39.4 ± 1.94 µM
Cc1sc(Nc2ccccc2)nc1C(=O)O,inhibitor,,,262 µM
O=C1CCC(N2Cc3c(NC(=O)COCCOCCOCCNCCNc4nonc4/C(=N/O)Nc4ccc(F)c(Br)c4)cccc3C2=O)C(=O)N1 (stereo not drawn),"kynurenine production, inhibitor",HeLa,,8.16 µM
N=C(N)SCc1cccc(CSC(=N)N)c1,"enzyme activity, inhibitor",,together with: 200 µM L-tryptophan,> 30 µM
O=C1c2c(O)cccc2[C@H]([C@@H]2O[C@H](CO)[C@@H](O)[C@H](O)[C@H]2O)c2cc(CO)cc(O)c21,"kynurenine formation, inhibitor",,,40.3 ± 0.8 µM
CN1C(=O)CCC(N2C(=O)c3cccc(NCCOCCOCCOCCOCCOCCOCCOCCNCCNc4nonc4/C(=N/O)Nc4ccc(F)c(Br)c4)c3C2=O)C1=O (stereo not drawn),"kynurenine production, inhibitor",HeLa,,7.23 µM
Cc1cc(O)c2c(c1)[C@H]([C@@H]1O[C@H](CO)[C@@H](O)[C@H](O)[C@H]1O)c1cccc(O)c1C2=O,"kynurenine formation, inhibitor",,,44.8 ± 1.32 µM
CCN(c1ccccc1)c1nc(Cl)nc2[nH]ncc12,inhibitor,,,> 1000 µM
O=C1CCC(N2Cc3c(NC(=O)COCCOCCNCCNc4nonc4/C(=N/O)Nc4ccc(F)c(Br)c4)cccc3C2=O)C(=O)N1 (stereo not drawn),"kynurenine production, inhibitor",HeLa,,9.36 µM
N=C(N)SCc1ccccc1CSC(=N)N,"enzyme activity, inhibitor",,together with: 200 µM L-tryptophan,1.71 µM
O=C(O)c1cc(-c2ccccc2)nc(O)n1,inhibitor,,,> 500 µM

# Repeated from above:
SMILES,assay,system,setting,IC50
N=C(N)SCc1cccc(CSC(=N)N)c1,"enzyme activity, inhibitor",,together with: 200 µM L-tryptophan,> 30 µM
O=C1c2c(O)cccc2[C@H]([C@@H]2O[C@H](CO)[C@@H](O)[C@H](O)[C@H]2O)c2cc(CO)cc(O)c21,"kynurenine formation, inhibitor",,,40.3 ± 0.8 µM
